Published values collected from several papers.
Compare with care: the assays were run in different laboratories.

Compound | target or system | test | system | setting | scale | endpoint | value
FC(F)(F)COCC(F)(F)F | MCF-10A | CellTiter-Glo | – | concentration not given | baseline: normalised, mean of replicates | viability | 109%
CC(=O)O[C@H]1C(=O)[C@@]2(C)[C@H]([C@H](OC(=O)c3ccccc3)[C@]3(O)C[C@H](OC(=O)[C@H](O)[C@@H](NC(=O)c4ccccc4)c4ccccc4)C(C)=C1C3(C)C)[C@]1(OC(C)=O)CO[C@@H]1C[C@@H]2O | CHP-212 parental | SRB | – | 1.524 nM | – | viability | 95.2%
Cn1cc(-c2ccc(-c3cncc(Cl)c3N3CCC4(CCNC4=O)CC3)cc2)cn1 | COLO 205 | gene expression, microarray, item: PFKFB4 mRNA | – | concentration not given, 2 h | baseline: untreated cells | log2 fold change | -1.49
CCN(CC)C(=O)N1CCN(C)CC1 | MCF-10A | CellTiter-Glo | – | concentration not given | baseline: normalised, mean of replicates | viability | 105%
Nc1cccc2c1CN(C1CCC(=O)NC1=O)C2=O (stereo not shown) | bone marrow CD138+ myeloma cells | XTT | – | 0.4 µM, mean of three patients | – | viability | 94%
Nc1ncnc2c1ncn2[C@@H]1O[C@H](COP(=O)(O)O)[C@@H](O)[C@H]1O | MCF-10A | CellTiter-Glo | – | concentration not given | baseline: normalised, mean of replicates | viability | 128%
O=C(/C=C/c1ccc(O)c(O)c1)OCCc1ccccc1 | Toxoplasma gondii | parasite growth, luciferase reporter | HFF, tachyzoite | 72 h | – | EC90 | 15.1 µM
CC(=O)Nc1cccc(-n2c(=O)n(C3CC3)c(=O)c3c(Nc4ccc(I)cc4F)n(C)c(=O)c(C)c32)c1 | LoVo (KRAS G13D) | resazurin | – | 6.25 nM, 72 h | baseline: DMSO | viability | 78.3%
Cc1ccc(CNC(=O)Cn2cc(CSc3nc4ccccc4[nH]3)nn2)cc1 | MDA-MB-231 | MTT | – | 250 ppm | – | viability | 6.48%
Cc1cccc(-c2[nH]c(CNc3ccccc3F)nc2-c2ccc3ncnn3c2)n1 | bone marrow CD138+ myeloma cells | XTT | – | 0.4 µM, phenol red-free RPMI | – | viability | 96%
O=C(O[C@]12C[C@H]3C[C@H](C[C@H](C3)C1)C2)c1ccc(NCc2cc(O)ccc2O)cc1 | Toxoplasma gondii | parasite growth, luciferase reporter | HFF, tachyzoite | 72 h | – | EC90 | 11.6 µM
Nc1cccc2c1C(=O)N(C1CCC(=O)NC1=O)C2=O (stereo not shown) | bone marrow CD138+ myeloma cells | XTT | – | 3 µM, mean of three patients | – | viability | 5%
CC(=O)c1nn(-c2ccc(Cl)cc2)/c(=N/N=C(\C)c2ccc(NC(=O)c3ccc(Cl)cc3)cc2)s1 | HepG2 | – | – | 1.25 µM | – | viability | 96.1%
